Experimental data from different studies.
Compare with care: the assays were run in different laboratories. Values joined by “and” are separate records of one study, mostly repeats; a detail may differ. ± marks the error that the study gave.
PDGFRB: Platelet-derived growth factor receptor beta (PDGFRB, Homo sapiens, UniProt P09619)
UniProt P09619, sequence (whole entry, looked up): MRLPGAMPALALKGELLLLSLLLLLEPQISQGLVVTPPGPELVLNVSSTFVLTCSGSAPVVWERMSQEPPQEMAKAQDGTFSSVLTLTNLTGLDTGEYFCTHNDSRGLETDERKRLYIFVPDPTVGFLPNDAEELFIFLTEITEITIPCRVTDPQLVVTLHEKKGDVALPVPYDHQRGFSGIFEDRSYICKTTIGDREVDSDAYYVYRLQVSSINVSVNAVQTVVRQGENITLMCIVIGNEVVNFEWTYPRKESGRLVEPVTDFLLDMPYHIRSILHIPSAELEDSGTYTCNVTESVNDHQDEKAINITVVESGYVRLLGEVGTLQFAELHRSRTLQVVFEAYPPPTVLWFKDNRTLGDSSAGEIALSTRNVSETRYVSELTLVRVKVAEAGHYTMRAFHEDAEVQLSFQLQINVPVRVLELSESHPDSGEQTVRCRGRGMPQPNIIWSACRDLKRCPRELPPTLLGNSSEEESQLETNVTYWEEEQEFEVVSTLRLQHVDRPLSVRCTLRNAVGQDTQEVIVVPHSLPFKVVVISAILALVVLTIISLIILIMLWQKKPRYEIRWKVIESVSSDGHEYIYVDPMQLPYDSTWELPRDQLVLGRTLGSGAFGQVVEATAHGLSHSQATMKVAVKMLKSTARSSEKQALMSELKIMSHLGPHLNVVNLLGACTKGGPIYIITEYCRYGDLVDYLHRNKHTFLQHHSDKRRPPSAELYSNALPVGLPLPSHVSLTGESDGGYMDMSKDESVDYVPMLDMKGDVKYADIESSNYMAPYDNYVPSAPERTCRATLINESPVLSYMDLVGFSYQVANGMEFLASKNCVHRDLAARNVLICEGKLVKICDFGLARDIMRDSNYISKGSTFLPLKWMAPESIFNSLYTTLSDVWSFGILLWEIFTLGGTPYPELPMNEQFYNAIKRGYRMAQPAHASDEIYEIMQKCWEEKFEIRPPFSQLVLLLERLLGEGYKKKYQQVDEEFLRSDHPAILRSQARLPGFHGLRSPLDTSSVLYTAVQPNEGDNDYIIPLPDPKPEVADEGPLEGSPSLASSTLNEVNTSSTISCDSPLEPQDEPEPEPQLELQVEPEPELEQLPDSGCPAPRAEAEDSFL
KDM4A: Lysine-specific demethylase 4A (KDM4A, Homo sapiens, UniProt O75164)
UniProt O75164, sequence (whole entry, looked up): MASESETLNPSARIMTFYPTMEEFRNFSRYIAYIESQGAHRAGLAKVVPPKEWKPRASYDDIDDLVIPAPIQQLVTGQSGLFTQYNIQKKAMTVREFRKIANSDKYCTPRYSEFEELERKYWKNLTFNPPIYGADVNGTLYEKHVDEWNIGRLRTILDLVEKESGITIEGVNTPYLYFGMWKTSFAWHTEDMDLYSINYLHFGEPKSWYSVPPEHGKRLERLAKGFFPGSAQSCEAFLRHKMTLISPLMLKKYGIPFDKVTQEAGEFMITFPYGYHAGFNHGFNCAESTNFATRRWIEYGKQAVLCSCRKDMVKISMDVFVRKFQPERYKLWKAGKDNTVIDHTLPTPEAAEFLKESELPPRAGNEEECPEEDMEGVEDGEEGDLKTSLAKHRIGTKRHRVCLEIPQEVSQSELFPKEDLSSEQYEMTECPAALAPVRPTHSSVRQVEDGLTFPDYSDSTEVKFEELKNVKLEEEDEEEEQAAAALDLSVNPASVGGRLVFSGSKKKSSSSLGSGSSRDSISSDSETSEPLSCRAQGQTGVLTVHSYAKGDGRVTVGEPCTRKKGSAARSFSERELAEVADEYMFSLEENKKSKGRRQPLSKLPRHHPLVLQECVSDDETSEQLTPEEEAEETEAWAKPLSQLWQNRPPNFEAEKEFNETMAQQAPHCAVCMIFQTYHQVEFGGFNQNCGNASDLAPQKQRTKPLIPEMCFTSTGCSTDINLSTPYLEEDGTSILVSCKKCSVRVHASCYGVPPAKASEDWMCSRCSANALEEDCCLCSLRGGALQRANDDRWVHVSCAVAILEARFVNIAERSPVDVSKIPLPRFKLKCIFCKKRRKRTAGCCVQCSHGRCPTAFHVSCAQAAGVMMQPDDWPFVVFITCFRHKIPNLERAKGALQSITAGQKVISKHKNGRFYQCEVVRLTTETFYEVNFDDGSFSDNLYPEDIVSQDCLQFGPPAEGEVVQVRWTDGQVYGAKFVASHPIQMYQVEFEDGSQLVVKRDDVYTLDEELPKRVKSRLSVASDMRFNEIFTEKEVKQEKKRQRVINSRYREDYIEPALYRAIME
STK25: Serine/threonine-protein kinase 25 (STK25, Homo sapiens, UniProt O00506)
UniProt O00506, sequence (whole entry, looked up): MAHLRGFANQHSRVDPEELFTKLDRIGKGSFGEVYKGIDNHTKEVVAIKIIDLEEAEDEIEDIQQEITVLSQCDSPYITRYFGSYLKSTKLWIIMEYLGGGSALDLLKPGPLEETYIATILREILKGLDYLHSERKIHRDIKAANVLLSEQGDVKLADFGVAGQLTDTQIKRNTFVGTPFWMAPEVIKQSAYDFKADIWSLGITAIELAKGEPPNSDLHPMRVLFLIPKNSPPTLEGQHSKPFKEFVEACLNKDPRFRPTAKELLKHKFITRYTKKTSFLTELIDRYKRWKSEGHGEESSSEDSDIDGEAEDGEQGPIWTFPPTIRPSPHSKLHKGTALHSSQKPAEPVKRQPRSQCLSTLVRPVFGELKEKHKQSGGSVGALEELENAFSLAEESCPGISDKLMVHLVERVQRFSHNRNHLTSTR
UniProt P97612, sequence (whole entry, looked up): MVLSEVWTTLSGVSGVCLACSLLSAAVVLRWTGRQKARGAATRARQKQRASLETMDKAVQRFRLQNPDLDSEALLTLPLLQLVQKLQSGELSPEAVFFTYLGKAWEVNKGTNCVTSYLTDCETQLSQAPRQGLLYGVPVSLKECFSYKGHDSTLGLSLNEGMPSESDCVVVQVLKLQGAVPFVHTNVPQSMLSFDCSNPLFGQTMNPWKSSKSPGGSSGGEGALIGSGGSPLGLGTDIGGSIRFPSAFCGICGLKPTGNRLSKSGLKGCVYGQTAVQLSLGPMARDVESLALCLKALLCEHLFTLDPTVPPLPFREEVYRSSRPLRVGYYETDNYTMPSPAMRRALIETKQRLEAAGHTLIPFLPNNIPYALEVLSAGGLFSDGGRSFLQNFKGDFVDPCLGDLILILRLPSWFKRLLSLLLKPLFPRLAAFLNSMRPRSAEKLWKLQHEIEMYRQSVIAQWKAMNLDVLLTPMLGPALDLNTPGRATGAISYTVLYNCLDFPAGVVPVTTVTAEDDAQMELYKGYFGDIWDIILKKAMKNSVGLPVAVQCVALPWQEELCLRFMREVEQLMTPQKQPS
UniProt P07948, sequence (whole entry, looked up): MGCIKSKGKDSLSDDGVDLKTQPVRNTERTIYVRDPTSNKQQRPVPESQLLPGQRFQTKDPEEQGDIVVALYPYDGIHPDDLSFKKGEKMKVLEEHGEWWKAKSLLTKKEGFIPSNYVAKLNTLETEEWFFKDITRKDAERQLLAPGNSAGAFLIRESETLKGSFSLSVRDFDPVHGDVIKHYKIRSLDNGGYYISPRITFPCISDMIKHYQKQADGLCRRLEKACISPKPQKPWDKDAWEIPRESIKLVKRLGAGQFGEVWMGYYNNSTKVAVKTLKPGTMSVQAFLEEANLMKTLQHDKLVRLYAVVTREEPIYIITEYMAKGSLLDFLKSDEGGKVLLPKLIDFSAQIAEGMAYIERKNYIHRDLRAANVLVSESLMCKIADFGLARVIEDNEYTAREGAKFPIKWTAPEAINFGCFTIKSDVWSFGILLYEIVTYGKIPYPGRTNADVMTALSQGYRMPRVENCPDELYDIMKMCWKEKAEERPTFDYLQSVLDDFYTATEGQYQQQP
UniProt Q15375, sequence (whole entry, looked up): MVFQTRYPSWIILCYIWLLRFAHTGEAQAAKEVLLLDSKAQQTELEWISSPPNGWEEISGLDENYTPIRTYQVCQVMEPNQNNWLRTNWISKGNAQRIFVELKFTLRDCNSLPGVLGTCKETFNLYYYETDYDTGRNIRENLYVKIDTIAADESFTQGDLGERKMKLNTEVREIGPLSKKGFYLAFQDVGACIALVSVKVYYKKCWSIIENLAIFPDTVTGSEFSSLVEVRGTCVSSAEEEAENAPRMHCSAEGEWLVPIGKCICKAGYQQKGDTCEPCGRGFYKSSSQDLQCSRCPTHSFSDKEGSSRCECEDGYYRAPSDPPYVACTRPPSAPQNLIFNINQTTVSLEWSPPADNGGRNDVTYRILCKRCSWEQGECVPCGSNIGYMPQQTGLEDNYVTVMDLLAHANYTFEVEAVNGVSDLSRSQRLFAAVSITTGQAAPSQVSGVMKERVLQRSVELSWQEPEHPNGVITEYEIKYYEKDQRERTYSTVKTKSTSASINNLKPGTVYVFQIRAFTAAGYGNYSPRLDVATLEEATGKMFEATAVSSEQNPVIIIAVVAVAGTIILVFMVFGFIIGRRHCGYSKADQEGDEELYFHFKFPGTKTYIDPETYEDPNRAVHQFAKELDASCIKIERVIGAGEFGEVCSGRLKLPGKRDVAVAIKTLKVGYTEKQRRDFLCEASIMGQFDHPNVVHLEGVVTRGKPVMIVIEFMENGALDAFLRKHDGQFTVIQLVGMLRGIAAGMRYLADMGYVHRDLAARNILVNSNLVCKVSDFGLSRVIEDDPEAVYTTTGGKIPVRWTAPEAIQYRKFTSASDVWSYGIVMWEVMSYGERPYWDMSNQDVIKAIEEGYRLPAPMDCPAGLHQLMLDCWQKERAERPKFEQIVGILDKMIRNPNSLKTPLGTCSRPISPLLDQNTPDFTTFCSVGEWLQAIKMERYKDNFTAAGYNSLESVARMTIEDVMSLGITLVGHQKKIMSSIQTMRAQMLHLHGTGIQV
UniProt Q6SA08, sequence (whole entry, looked up): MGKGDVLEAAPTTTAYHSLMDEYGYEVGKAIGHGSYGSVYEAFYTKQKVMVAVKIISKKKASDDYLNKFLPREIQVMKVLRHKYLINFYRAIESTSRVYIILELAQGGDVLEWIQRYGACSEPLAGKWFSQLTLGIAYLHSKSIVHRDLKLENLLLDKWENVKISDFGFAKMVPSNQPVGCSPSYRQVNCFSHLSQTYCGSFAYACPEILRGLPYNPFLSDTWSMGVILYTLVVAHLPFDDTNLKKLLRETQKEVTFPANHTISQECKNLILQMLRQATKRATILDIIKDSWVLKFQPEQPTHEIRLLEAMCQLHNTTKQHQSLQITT

SMILES | target | assay | system | setting | how to read | remaining activity
COc1cc(F)ccc1-c1ncnc(Nc2cccc(C[S@](C)(=N)=O)c2)n1 | PDGFRB | kinase activity |  | 10 µM, together with: 10 µM ATP |  | 41%
O=C1NC(=O)/C(=C/c2ccc(-c3ccc(F)cc3O)o2)S1 | SRSF protein kinase 1 (SRPK1, Homo sapiens, UniProt Q96SB4) | enzyme activity |  | 10 µM |  | 39%
C=CC[C@@H]1c2ccc(OC)c(OC)c2CN2CCc3cc4c(cc3[C@H]12)OCO4 | P2X purinoceptor 7 (P2rx7, Mus musculus, UniProt Q9Z1M0, A312V) | ATP-evoked current, inhibitor, whole-cell patch clamp |  | 10 µM, A312V variant |  | 21.5%
COC(=O)C(C(=O)C(=O)Nc1ccc([N+](=O)[O-])cc1[N+](=O)[O-])c1nc2ccc(Cl)cc2[nH]c1=O (centres unmarked) | KDM4A |  |  | concentration not given |  | 77%
CN(C(=O)n1cnc(-c2ccc[n+]([O-])c2)c1)C1CCCCC1 | Fatty-acid amide hydrolase 1 (Faah, Rattus norvegicus, UniProt P97612) |  | rat, liver | 0.1 mg/kg, 6 days | relative to: control | 79%
C=CC(=O)N1CCC([C@@H]2CCNc3c(C(N)=O)c(-c4ccc(Oc5ccccc5)cc4)nn32)CC1 | STK25 | kinase activity, inhibitor, HotSpot radiometric |  | 100 nM, together with: ATP 10 µM |  | 79.1 ± 0.8%
COc1cc(-c2cncc3c2CN(C)Cc2cc(N4CCNCC4)ccc2-3)cc(OC)c1OC | Serine/threonine-protein kinase PAK 1 (PAK1, Homo sapiens, UniProt Q13153) | kinase activity |  | 1 µM, human enzyme, together with: ATP 10 µM | relative to: DMSO control | 97%
O=C(O)c1ccc(Nc2ncc3c(n2)-c2ccc(Cl)cc2C(c2c(F)cccc2F)=NC3)cc1 | human EGFR T790M/L858R | inhibitor, biochemical kinase |  | 1 µM |  | 51%
CC#CC(=O)N1CCC[C@H]1c1nc(-c2ccc(C(=O)Nc3ccccn3)cc2)c2c(N)nccn12 | Activated CDC42 kinase 1 (TNK2, Homo sapiens, UniProt Q07912) | kinase activity, inhibitor, HotSpot radiometric |  | 100 nM, together with: ATP 10 µM |  | 98.2 ± 0.1%
CC1(C)CCc2sc(CNS(=O)(=O)c3occc3C(=O)O)cc2C1 | malate dehydrogenase | enzyme activity, inhibitor |  | 200 µM, pH 7.0, 1% DMSO, aggregation counter-screen |  | 75%
CCCOc1ccc(OC)c(F)c1C(=O)c1ccc(C(=O)N[C@@H]2CNC[C@H]2NC(=O)c2ccc3[nH]ncc3c2)cc1 | Hepatocyte growth factor receptor (MET, Homo sapiens, UniProt P08581, Y1230C) | enzyme activity |  | 10 µM |  | 38%
C[C@H]1[C@H](OC(=O)CCC(=O)O)O[C@@H]2O[C@@]3(C)CC[C@H]4[C@H](C)CC[C@@H]1[C@@]24OO3 | Non-structural polyprotein pORF1, helicase domain (Hepatitis E virus genotype 1, UniProt P33424) | ATPase activity, inhibitor, colorimetric |  | 39 µM | relative to: untreated | 78.6%
O=C(O)C1Cc2nnc(CNS(=O)(=O)c3cccc(Cl)c3O)n2C1 (centres unmarked) | malate dehydrogenase | enzyme activity, inhibitor |  | 200 µM, pH 7.0, 1% DMSO, aggregation counter-screen |  | 94%
O=C(NC1CCC1)c1ccc2nc(-c3cccc(NS(=O)(=O)NCCN4CCCCC4)c3)cn2c1 | PDGFRB | enzyme activity |  | 10 µM |  | 99%
CN(C)CC#Cc1ccc2[nH]c3c(c2c1)-c1nc(N)ncc1CCC3 | Testis-specific serine/threonine-protein kinase 4 (TSSK4, Homo sapiens, UniProt Q6SA08) | kinase activity, inhibitor, radiometric |  | 1 µM, together with: ATP at Km |  | 72%
O=S(=O)(NC1(c2ccc3c(c2)OCO3)CC1)c1cccc(Cl)c1O | malate dehydrogenase | enzyme activity, inhibitor |  | 200 µM, pH 7.0, 1% DMSO, aggregation counter-screen |  | 125%

SMILES | target | assay | system | setting | how to read | remaining activity
C=CC(=O)N1CCC[C@@H](n2nc(-c3ccc(Oc4ccccc4)cc3)c3c(N)ncnc32)C1 | STK25 | kinase activity, inhibitor, HotSpot radiometric |  | 100 nM, together with: ATP 10 µM |  | 103 ± 2.2%
O=C(Nc1ccc(NS(=O)(=O)c2cccc(Cl)c2O)cn1)C1CC1 | malate dehydrogenase | enzyme activity, inhibitor |  | 200 µM, pH 7.0, 1% DMSO, aggregation counter-screen |  | 90%
COc1cc(Nc2ncc3c(n2)-c2ccc(Cl)cc2C(c2c(F)cccc2OC)=NC3)ccc1C(=O)O | FLT1 | kinase activity |  | 1 µM |  | 95%
O=[N+]([O-])c1ccccc1CCNS(=O)(=O)c1cccc(Cl)c1O | malate dehydrogenase | enzyme activity, inhibitor |  | 200 µM, pH 7.0, 1% DMSO, aggregation counter-screen |  | 71%
C=CC(=O)N1CCC[C@@H](n2nc(-c3ccc(Oc4ccccc4)cc3)c3c(N)ncnc32)C1 | Ephrin type-A receptor 7 (EPHA7, Homo sapiens, UniProt Q15375) |  |  | 1 µM |  | 94.9%
COc1ccc(F)cc1C(=O)NCc1ccc(-c2nn([C@@H](C)C(F)(F)F)c(N)c2C(N)=O)cc1 | Tyrosine-protein kinase Lyn, isoform B (LYN, Homo sapiens, UniProt P07948) | kinase activity, inhibitor, HotSpot radiometric |  | 100 nM, together with: ATP 10 µM |  | 101%
Cc1cc(Nc2cc(N3CCN(C)CC3)nc(Sc3ccc(NC(=O)C4CC4)cc3)n2)[nH]n1 | Ephrin type-A receptor 1 (EPHA1, Homo sapiens, UniProt P21709) | kinase activity, KinaseProfiler |  | 0.03 µM, species human | relative to: control | 99%
NC/C(=C\F)COc1cccc(Cn2c(=S)[nH]c(=O)c3[nH]cnc32)c1 | Lactoperoxidase (LPO, Bos taurus, UniProt P80025) | H2O2 electrode |  | 2.5 µM | relative to: control | 78% and 71.3% and 94.1%
Cc1cccc(C)c1C(=O)OCC(=O)[C@H](CCCCN)NC(=O)[C@H](CCCNC(=N)N)NC(=O)OCc1ccccc1 | Dipeptidyl peptidase 1 (Ctsc, Mus musculus, UniProt P97821) | inhibitor |  | 10 µM, together with: AMC fluorogenic substrate | relative to: untreated | 100%
COc1cc(N2CCN(C)CC2)ccc1Nc1nc(N)n(C(=S)NCc2c(Cl)cccc2Cl)n1 | STK25 | enzyme activity |  | 10 µM | relative to: control | 21%
O=S(=O)(NC1(Cc2ccc(F)cc2)CC1)c1cccc(Cl)c1O | malate dehydrogenase | enzyme activity, inhibitor |  | 200 µM, pH 7.0, 1% DMSO, aggregation counter-screen |  | 108%
Cc1cc(NC(=O)c2cccc(NC(=O)/C=C/CN(C)C)c2)ccc1Nc1nccc(-c2cccnc2)n1 | Mitogen-activated protein kinase 8 (MAPK8, Homo sapiens, UniProt P45983) | enzyme activity, inhibitor |  | 8.36e-05 µM, 18 h, unit not given, together with: GSH 10 mM pre-incubation | relative to: vehicle | 1.07
O=S(=O)(Nc1ccc(O)c(C(F)(F)F)c1)c1cc(Cl)cc(Cl)c1O | malate dehydrogenase | enzyme activity, inhibitor |  | 200 µM, pH 7.0, 1% DMSO, aggregation counter-screen |  | 74%
COC1CC(OC(=O)c2ccc([N+](=O)[O-])cc2)C(OC(=O)c2ccc([N+](=O)[O-])cc2)C(C)O1 (centres unmarked) | KDM4A |  |  | concentration not given |  | 99%
CC(CNS(=O)(=O)c1cnn(C)c1C(=O)O)c1c(Cl)cccc1Cl (centres unmarked) | malate dehydrogenase | enzyme activity, inhibitor |  | 200 µM, pH 7.0, 1% DMSO, aggregation counter-screen |  | 72%
CNc1ncc2c(/C=C/C(=O)N3CCC(OC)CC3)nn(Cc3cccc(C(F)(F)F)c3)c2n1 | Serine/threonine-protein kinase ULK2 (ULK2, Homo sapiens, UniProt Q8IYT8) | kinase activity, inhibitor |  | 1 µM | relative to: untreated control | 101%

Some of these lines once more:
SMILES | target | assay | system | setting | how to read | remaining activity
O=C(O)C1Cc2nnc(CNS(=O)(=O)c3cccc(Cl)c3O)n2C1 (centres unmarked) | malate dehydrogenase | enzyme activity, inhibitor |  | 200 µM, pH 7.0, 1% DMSO, aggregation counter-screen |  | 94%
O=C1NC(=O)/C(=C/c2ccc(-c3ccc(F)cc3O)o2)S1 | SRSF protein kinase 1 (SRPK1, Homo sapiens, UniProt Q96SB4) | enzyme activity |  | 10 µM |  | 39%
